Published values from different studies.
Parts stem from different laboratories: compare values within a part only.
Sequence of UniProt Q9BVS4 (whole entry, looked up): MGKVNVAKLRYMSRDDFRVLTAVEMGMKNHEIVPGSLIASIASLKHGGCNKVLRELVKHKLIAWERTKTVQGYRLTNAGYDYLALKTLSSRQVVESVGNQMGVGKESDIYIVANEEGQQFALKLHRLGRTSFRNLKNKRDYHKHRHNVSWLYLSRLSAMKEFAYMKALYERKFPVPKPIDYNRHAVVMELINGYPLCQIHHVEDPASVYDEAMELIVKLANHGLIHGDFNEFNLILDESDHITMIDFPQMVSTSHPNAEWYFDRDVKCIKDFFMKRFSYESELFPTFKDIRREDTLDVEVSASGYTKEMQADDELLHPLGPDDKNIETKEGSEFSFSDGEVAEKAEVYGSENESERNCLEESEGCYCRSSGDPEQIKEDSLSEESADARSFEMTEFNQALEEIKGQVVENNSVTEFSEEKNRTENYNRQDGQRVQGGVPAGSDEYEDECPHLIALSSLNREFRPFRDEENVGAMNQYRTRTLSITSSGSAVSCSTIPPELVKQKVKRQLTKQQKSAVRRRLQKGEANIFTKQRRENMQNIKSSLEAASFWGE
Sequence of UniProt P49760 (whole entry, looked up): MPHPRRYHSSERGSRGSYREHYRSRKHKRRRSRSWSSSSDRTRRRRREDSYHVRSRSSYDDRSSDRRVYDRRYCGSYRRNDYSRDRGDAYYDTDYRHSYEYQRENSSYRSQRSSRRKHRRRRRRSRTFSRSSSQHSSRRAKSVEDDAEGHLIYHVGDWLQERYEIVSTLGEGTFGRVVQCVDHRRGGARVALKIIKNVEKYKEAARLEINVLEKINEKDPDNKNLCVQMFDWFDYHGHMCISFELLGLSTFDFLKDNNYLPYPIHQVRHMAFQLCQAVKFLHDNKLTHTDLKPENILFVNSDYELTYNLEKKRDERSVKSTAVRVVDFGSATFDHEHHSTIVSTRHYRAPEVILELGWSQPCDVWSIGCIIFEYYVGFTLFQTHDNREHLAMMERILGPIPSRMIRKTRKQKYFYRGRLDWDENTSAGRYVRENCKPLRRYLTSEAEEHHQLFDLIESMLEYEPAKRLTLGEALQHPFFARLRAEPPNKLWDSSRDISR
Sequence of UniProt Q13705 (whole entry, looked up): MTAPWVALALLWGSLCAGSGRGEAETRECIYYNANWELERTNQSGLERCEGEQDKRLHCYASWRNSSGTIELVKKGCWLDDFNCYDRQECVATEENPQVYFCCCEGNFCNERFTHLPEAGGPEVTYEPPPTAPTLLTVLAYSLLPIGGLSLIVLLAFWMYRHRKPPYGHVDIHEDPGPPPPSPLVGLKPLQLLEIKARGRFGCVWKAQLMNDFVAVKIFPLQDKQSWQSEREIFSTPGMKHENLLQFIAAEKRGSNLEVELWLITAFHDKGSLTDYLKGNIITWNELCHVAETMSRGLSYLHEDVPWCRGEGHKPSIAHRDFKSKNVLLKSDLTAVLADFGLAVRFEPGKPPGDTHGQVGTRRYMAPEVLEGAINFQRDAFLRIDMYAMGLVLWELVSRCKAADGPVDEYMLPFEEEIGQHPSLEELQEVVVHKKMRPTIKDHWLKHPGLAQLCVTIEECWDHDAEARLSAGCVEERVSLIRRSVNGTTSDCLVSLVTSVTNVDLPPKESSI
Sequence of UniProt Q04912 (whole entry, looked up): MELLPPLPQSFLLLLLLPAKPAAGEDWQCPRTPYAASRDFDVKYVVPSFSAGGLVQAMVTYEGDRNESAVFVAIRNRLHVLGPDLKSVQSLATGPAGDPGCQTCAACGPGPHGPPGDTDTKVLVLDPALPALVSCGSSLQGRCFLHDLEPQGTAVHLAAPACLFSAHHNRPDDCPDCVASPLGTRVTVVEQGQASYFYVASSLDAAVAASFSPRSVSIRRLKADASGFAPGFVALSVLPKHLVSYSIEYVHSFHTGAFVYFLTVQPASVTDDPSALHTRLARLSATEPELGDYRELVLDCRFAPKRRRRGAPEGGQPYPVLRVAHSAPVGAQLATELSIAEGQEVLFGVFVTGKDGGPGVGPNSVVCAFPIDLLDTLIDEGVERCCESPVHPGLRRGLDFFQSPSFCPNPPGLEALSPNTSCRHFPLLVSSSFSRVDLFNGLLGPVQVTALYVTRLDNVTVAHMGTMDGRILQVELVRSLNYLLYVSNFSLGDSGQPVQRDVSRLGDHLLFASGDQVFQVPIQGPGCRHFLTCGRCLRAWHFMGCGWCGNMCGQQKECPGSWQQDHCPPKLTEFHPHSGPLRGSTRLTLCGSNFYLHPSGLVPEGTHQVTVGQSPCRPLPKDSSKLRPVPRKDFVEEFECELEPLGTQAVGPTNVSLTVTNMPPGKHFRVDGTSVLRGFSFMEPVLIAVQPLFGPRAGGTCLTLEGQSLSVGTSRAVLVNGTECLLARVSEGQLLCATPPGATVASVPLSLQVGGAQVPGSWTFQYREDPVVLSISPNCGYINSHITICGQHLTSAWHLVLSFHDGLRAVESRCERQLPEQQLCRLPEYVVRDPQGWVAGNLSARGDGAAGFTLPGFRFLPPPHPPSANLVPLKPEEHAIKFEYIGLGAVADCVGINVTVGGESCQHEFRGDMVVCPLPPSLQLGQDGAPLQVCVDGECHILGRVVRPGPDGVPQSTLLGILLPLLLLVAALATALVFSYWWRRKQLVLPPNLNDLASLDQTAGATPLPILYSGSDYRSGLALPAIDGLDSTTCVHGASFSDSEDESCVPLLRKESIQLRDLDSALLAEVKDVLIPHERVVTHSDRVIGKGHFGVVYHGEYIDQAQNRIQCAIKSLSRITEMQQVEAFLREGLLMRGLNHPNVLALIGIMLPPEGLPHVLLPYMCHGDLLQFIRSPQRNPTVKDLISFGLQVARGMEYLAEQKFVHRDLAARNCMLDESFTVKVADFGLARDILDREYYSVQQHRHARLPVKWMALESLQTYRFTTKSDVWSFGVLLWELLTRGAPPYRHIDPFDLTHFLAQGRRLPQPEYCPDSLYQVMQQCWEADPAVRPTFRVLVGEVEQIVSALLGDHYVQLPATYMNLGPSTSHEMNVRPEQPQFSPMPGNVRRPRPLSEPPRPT
Sequence of UniProt Q13188 (whole entry, looked up): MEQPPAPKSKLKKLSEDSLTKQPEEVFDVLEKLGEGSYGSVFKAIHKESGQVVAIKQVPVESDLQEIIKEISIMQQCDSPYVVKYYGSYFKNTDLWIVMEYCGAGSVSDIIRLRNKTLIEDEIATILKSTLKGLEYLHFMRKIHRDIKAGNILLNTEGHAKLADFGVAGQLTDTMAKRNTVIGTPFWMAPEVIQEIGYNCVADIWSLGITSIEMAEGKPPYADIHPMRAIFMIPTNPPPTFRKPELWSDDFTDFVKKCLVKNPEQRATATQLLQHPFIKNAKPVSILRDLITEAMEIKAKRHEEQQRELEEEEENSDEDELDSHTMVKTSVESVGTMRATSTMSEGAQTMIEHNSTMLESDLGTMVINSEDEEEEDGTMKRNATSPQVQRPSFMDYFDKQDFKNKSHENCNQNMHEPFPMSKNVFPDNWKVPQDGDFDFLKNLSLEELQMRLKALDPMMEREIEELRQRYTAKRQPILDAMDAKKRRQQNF
Sequence of UniProt Q7L7X3 (whole entry, looked up): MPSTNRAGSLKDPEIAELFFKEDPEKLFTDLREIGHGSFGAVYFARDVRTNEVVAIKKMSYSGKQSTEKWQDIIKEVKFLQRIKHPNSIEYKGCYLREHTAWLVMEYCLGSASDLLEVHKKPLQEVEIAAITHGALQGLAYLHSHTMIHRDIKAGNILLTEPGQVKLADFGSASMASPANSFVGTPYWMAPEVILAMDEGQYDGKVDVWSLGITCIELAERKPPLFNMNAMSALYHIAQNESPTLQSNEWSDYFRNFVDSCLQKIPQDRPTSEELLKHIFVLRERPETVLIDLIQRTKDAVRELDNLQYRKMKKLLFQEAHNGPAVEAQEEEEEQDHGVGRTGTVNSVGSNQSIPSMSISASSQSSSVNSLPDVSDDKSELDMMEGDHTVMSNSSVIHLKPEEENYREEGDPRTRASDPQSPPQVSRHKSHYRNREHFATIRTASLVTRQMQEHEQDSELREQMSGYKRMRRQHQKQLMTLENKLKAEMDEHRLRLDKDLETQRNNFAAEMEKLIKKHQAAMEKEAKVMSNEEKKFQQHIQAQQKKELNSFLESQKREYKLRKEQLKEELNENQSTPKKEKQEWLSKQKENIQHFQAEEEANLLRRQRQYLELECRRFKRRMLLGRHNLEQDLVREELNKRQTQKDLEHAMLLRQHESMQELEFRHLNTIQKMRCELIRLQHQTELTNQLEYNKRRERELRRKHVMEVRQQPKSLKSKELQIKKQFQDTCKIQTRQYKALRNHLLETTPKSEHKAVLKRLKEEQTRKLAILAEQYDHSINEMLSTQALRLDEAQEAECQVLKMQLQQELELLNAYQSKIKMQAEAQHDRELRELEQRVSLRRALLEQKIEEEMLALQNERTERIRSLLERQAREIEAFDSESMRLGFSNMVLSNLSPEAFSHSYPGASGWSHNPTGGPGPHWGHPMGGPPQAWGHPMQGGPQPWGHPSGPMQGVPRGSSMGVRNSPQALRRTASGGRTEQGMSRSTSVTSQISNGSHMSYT
Sequence of UniProt P11309 (whole entry, looked up): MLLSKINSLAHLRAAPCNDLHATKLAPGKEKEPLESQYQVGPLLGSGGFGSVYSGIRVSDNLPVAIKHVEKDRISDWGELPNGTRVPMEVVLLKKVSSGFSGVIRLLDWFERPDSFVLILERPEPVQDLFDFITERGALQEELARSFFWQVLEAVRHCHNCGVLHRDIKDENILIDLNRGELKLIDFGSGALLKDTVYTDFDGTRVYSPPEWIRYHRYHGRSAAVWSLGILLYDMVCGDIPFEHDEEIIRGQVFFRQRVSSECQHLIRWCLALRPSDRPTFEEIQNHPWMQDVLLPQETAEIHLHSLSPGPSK

Set 1
Compound: Cc1nc(Nc2ncc(C(=O)Nc3c(C)cccc3Cl)s2)cc(N2CCN(CCO)CC2)n1
Action: inhibitor
| target | setting | inhibition [%] |
| --- | --- | --- |
| MST1R (Homo sapiens, UniProt Q04912) | 10 µM | < 50 |
| STK11 (Homo sapiens, UniProt Q15831) | 1 µM | < 50 |
| ACVR1B (Homo sapiens, UniProt P36896) | 1 µM | < 50 |
| PIM1 (Homo sapiens, UniProt P11309) | 10 µM | < 50 |
| JAK2 (Homo sapiens, UniProt O60674) | 1 µM | 71 |
| TAOK1 (Homo sapiens, UniProt Q7L7X3) | 10 µM | < 50 |
| CLK2 (Homo sapiens, UniProt P49760) | 10 µM | < 50 |
| SRMS (Homo sapiens, UniProt Q9H3Y6) | 10 µM | 100 |
| RIOK3 (Homo sapiens, UniProt O14730) | 10 µM | < 50 |
| PRKX (Homo sapiens, UniProt P51817) | 10 µM | < 50 |
| RIOK2 (Homo sapiens, UniProt Q9BVS4) | 1 µM | < 50 |
| DCLK2 (Homo sapiens, UniProt Q8N568) | 10 µM | < 50 |
| MAPK11 (Homo sapiens, UniProt Q15759) | 10 µM | 95 |

Set 2
Compound: CCCOc1ccc([C@H]2[C@H](C(=O)O)[C@@H](c3ccc4c(c3)OCO4)CN2CC(=O)Nc2c(CC)cccc2CC)cc1
Observed: cell-free assay
Technique: competition with immobilised ligand
Tested at: 1 µM
| target | remaining binding [%] |
| --- | --- |
| STK38L (Homo sapiens, UniProt Q9Y2H1) | 88 |
| ACVR2B (Homo sapiens, UniProt Q13705) | 93 |
| Tyrosine-protein kinase ABL1, non-phosphorylated (ABL1, Homo sapiens, UniProt P00519, H396P) | 63 |
| Tyrosine-protein kinase JAK3, JH1 (JAK3, Homo sapiens, UniProt P52333) | 84 |
| FLT3 (Homo sapiens, UniProt P36888, K663Q) | 100 |
| EPHB2 (Homo sapiens, UniProt P29323) | 100 |
| PIK3CA (Homo sapiens, UniProt P42336, H1047Y) | 78 |
| NEK10 (Homo sapiens, UniProt Q6ZWH5) | 82 |
| PAK5 (Homo sapiens, UniProt Q9P286) | 73 |
| BMP2K (Homo sapiens, UniProt Q9NSY1) | 87 |
| RIOK2 (Homo sapiens, UniProt Q9BVS4) | 71 |
| OXSR1 (Homo sapiens, UniProt O95747) | 75 |
| FLT3 (Homo sapiens, UniProt P36888, D835V/ITD) | 59 |
| GRK4 (Homo sapiens, UniProt P32298) | 100 |
| CDK8 (Homo sapiens, UniProt P49336) | 76 |

Set 3
SMILES: C[C@H]1CC[C@H](n2c3cnccc3c3cnc(Nc4ccc5c(n4)CCN(C(=O)CO)C5)nc32)CC1
Tested at: 1 µM
| target | assay | how to read | remaining binding [%] |
| --- | --- | --- | --- |
| EGFR (Homo sapiens, UniProt P00533) | cell-free assay, competition with immobilised ligand |  | 82 |
| STK3 (Homo sapiens, UniProt Q13188) | binding |  | 70 |
| MAPK15 (Homo sapiens, UniProt Q8TD08) | binding, competition with immobilised ligand |  | 2 |
| MYLK3 (Homo sapiens, UniProt Q32MK0) | binding, competition with immobilised ligand |  | 100 |
| EPHB4 (Homo sapiens, UniProt P54760) | cell-free assay, competition with immobilised ligand |  | 89 |
| RET (Homo sapiens, UniProt P07949) | cell-free assay, competition with immobilised ligand |  | 49 |
| FLT3 ITD mutant, human | scanMAX kinase panel | relative to: control | 0.3 |
| SIK3 (Homo sapiens, UniProt Q9Y2K2) | binding, competition with immobilised ligand |  | 81 |
| TAOK2 (Homo sapiens, UniProt Q9UL54) | binding, competition with immobilised ligand |  | 81 |

Set 4
Compound: N#Cc1cnc2cnc(NCc3cccnc3)cc2c1Nc1ccc(F)c(Cl)c1
Observed: enzyme activity
Action: inhibitor
Tested at: 0.5 µM
Relative to: control
| target | remaining activity [%] |
| --- | --- |
| MUSK (Homo sapiens, UniProt O15146) | 55.6 |
| PAK1 (Homo sapiens, UniProt Q13153) | 95.7 |
| SRPK1 (Homo sapiens, UniProt Q96SB4) | 102 |
| CAMKK1 (Homo sapiens, UniProt Q8N5S9) | 105 |
| PRKCQ (Homo sapiens, UniProt Q04759) | 113 |
| CLK2 (Homo sapiens, UniProt P49760) | 79.9 |
| EPHA6 (Homo sapiens, UniProt Q9UF33) | 76.2 |
| PRKCZ (Homo sapiens, UniProt Q05513) | 93.9 |
| TEC (Homo sapiens, UniProt P42680) | 118 |
| MAP3K20 (Homo sapiens, UniProt Q9NYL2) | 106 |
| Cyclin-dependent kinase 2, with cyclin E (CDK2, Homo sapiens, UniProt P24941) | 94.1 |
| PAK6 (Homo sapiens, UniProt Q9NQU5) | 104 |
| CAMK1 (Homo sapiens, UniProt Q14012) | 99.1 |

A few entries again (set 1):
| target | setting | inhibition [%] |
| --- | --- | --- |
| JAK2 (Homo sapiens, UniProt O60674) | 1 µM | 71 |
| TAOK1 (Homo sapiens, UniProt Q7L7X3) | 10 µM | < 50 |
| CLK2 (Homo sapiens, UniProt P49760) | 10 µM | < 50 |
| SRMS (Homo sapiens, UniProt Q9H3Y6) | 10 µM | 100 |
| RIOK3 (Homo sapiens, UniProt O14730) | 10 µM | < 50 |
